Results collected from several papers.
Every numbered part comes from another study and shows a few of its results, in no order.

Study 1
Target: RNA binding protein fox-1 homolog 2, RRM domain, GST-SBP tag (RBFOX2, Homo sapiens, UniProt O43251-10, residues 100-194)
Technique: RNA Bind-n-Seq
Form: RNA
Medium: in vitro
Concentration: 365 nM
Setting: natural RNA segment, single round, ends assumed
Relative to: no-protein control
Reading: higher = stronger binding
Shared flanks, not repeated: GGGAGUUCUACAGUCCGACGAUC … UGGAAUUCUCGGGUGCCAA
Construct (chain): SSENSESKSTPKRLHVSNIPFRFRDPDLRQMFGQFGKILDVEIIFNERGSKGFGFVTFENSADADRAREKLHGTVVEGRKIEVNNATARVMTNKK
Oligonucleotide	RBNS enrichment (R)
AAACAUGACCCUGGGCUUCUGUACCACACUAGAAUUCAUGUGAGAAAGCUAAAAUGGUGGUCUUCUCCACCAGCCCCUCACAGGCUUGGGGGUUUUCAAUGUGAAACACA	0.241
UGGUAGCCAUCUUAGACACUGACAUUUGGCUUUGUCGUCAAUUUCAUCACCCUCCUUGAGGUUACUGUGCAGUUUCAACCAGCAUUUUAUCCUAGUGAGGUCAUUAUCAG	0.257
GCCAAUAGUGGCUGAGUUUCGCACUUGAUUUUCAAUAUUUUAUAGUAAGAAAUGACAAACUGCUUUGUUUCAUUUCAUAAACAAACUCUGCAUUUAGAUAACUAUUAAAG	0.845
CUUGUCCCUCAGCUCACACUUGGCGGUGGCCUCUCGAUCACUCUGGGUCUUGGGAGCUCUUGCCUUCACCUGUGGAUCCACUUAAGACAUUGUGGUCUGAAGCUCAGGCC	0.289
GUGCCUGUCCAGCAGGGAGCUUGAAUUUAAGUUCCAUGUAUGAAGUCAUUGGCUCUAUCUGCAUUUUUCUGUCAUUCUCUUCAUUUGUUUUAAGGUGGAAAAUUUUCUUA	1.12
UGAAUGAUCUCUUCCCUAGAGUUGAUUGUCGGGUACACAGUGUGAACCCCCGAAGACGGAACCUCACAGUCUUCCAUGUUCCCUUCUUAACUGUCGUGUGGCUCGUUGCU	3.27
AGAACCAGACGCCAACUUUGUACUGCAUUUGGGAUCAUAUCUUUCCCCUUCUCUGUCCCCCAUUCUCUGAAUGCUGCUUUCUCUGGCUUGUUUCCUACAGUGGGGGCCUG	0.504
CUGGCCCCCUUGCUUGUGGCUAGGCCAGCCUAGGAUGUGGGUUCUGUGGAGGAGAGGCGGGGUAAUGGGGAGGCUGAGGGCACCUCUUCACUGCCCCUCUCCCUCAAGCC	2.75
AAAAAAUAAUAAAGAAGUGAGACUAUUAGACAAAGUAUUUAUGUAAUUAUUUGAUAACUCUUGUAAAUAGGUGGAAUAUGAAUGCUUGGAAAAUUAAACUUUAAUUUAUU	1.45
UCAGAAAACUGUGAAGCAGGGGUCUUGUUAGUUACAAAGCCAGUCCUAGUUGCAUGUCCAAGGGGGUAGAUUUUCAUCACCCUACUAAAUGUGGUAUGUCACUGCUGAAG	0.815
GGUGCUGCGUGGGGCCCUCUCCAGCCCGUCCUACCCUGGGCUCACAUGGGGCCUGUGCCCACCCCUCUUGAGUGUCUUGGGGACAGCUCUUUCCACCCCUGGAAGAUGGA	0.484
GACUGGACAUCUUGGUCUUUUUCUCAGGUCUGAAAGGAACCAUUUUUUGGUAUGAUAAAGACCCCAAAAUGCCUUUUUUUUAAAGUGGGGAGAGGGAGGAGGUACGCCGG	0.51

Study 2
Target: Ras GTPase-activating protein-binding protein 1, RRM domain (G3BP1, Homo sapiens, UniProt Q13283)
Sequence of UniProt Q13283 (whole entry, looked up): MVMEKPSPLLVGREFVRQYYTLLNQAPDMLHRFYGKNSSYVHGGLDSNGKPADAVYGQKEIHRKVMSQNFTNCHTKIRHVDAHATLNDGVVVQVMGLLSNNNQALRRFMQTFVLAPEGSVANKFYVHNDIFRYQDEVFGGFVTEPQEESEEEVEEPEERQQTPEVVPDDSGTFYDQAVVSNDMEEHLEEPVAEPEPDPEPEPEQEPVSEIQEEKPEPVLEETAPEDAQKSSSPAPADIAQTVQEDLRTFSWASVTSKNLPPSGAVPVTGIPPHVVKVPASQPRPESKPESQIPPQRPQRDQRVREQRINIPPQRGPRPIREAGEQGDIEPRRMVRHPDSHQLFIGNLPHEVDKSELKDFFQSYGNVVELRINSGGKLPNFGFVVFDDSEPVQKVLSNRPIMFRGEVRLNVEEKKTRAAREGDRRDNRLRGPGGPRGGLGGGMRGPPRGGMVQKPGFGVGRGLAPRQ
Technique: RNA Bind-n-Seq
Form: RNA
Medium: in vitro
Concentration: 1 µM
Setting: whole 134-nt RNA, ends assumed
Together with: 150 mM KCl
Relative to: input library
Reading: higher = stronger binding
Shared flanks, not repeated: GGGAGUUCUACAGUCCGACGAUC … UGGAAUUCUCGGGUGUCAAGG
Oligonucleotide	log2 enrichment
GUUUGAUGAUCGUGGACGGAGUGAUUACGAUGGCAUUGGCAGCCGUGGUGACAGAAGUGGCUUUGGCAAAUUUGAACGUGGUGGAAACAG	0.936
UAACUUUAGAGGAGGAUCUGAUGGAUAUGGCAGUCGACGUGGAUUUGGGGAUGGCUAUAAUGGGUAUGGAGGAGGACCUGGAGGUGGCAA	-0.833
CAAGUCCUGUGCUACACAUCGUAUGUACCGAAUCGGGUUUUGGGUUUUGGUUUUGGAAAGUAUUAUGUUACGCCGUUCGGAUCUGCACUU	-0.282
GCAGGAAGUAAAAACAAAUGGAAAUGCUAAAGAUAGUGGCAGGGGUGGGGGUUGCUAAGGAAAGGGUGGGAUGGGAGUGGGUAAAGAGUU	1.44
AGUCCUGUGCUACACAUCGUAUGUACCGAAUCGGAAAAAGGGAAAAAGGGAAAAAGGGAAAGUAUUAUGUUACGCCGUUCGGAUCUGCAC	-0.0476
ACCAUGCAGGAAAGCAUCUUUGGGAAGUGGGGCAAGGGGGGGAUAGGGAGGGGGGUAACACUUUGGGAACAGGUGGUCCCAGGUCGUUUC	-0.391
UUCCUCAAGUCCUGUGCUACACAUCGUAUGUACCGAAUCGGUGGUGGGUGGAAAGUAUUAUGUUACGCCGUUCGGAUCUGCACUUCCAGC	-0.17
CCUCAAGUCCUGUGCUACACAUCGUAUGUACCGAAUCGGAGGGGAGGAGGGGAAAGUAUUAUGUUACGCCGUUCGGAUCUGCACUUCCAG	-0.165
CACAGACAACACGCACCCACACAGACACAGAGUGAAGGGGUUGGGAUGGGGACAGGGUGCACAGCAGGGCGGGGUAGGACCCCAGCCCCU	0.0767
CUGUGCUACACAUCGUAUGUACCGAAUCGGGGCCCCCCCGGGCCCCCCCGGGCCCCCCCGGAAAGUAUUAUGUUACGCCGUUCGGAUCUG	-0.64

Study 3
Target: Hepatocyte nuclear factor 3-alpha (Foxa1, Mus musculus, UniProt P35582, residues 1-468, full length assumed)
Technique: EMSA with sequencing
Form: double-stranded DNA, one strand shown
Medium: in vitro
Concentration: 10 and 20 nM
Setting: whole designed probe, mean of two concentrations, ends assumed
Relative to: negative control set to 0
Reading: higher = stronger binding
Shared flanks, not repeated: GTGAGCGGTGCCCATTGATGGGGAAC … TTTCACTGGGATCGTGGGGAC
Residues (chain): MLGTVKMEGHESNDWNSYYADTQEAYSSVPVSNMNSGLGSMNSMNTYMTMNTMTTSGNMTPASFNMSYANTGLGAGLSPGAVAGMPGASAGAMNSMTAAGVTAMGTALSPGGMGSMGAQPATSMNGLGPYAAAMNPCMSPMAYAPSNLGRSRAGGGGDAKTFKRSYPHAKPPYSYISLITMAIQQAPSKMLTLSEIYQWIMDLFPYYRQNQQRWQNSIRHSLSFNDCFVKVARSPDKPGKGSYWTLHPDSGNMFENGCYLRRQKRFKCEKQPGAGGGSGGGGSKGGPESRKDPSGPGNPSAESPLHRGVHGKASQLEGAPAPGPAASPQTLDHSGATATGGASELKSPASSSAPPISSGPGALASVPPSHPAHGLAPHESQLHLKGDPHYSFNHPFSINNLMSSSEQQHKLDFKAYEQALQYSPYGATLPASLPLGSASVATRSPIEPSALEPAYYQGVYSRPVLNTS
Oligonucleotide	normalised bound fraction [ratio]
ATCTTCCCCCTCTTCCTTGCCCCACCAGCTCACCTTCCCGGGTTATTTGCAGATAGGAAAATAAATAAAGCCGGCATTCGTTAACCCTCTTCACGCGCATACTGCCAGAGCAAACAGATCTAACATGGGATGAATCATGCGCCAGGCTCCGGGAGAGCAAAGCACCGTGTCAGGGCCATGATCCGGGGTGGCC	0.388
GTAGGGGTAATGAAAAACTTCTTGTGCAAGCGGCCATTAATCAGCAGTGTAACATTGCATAACGTGCTCCAAAGCACGACTCATGGGATCAGAGTACACAGCTGCATAATGCAGGCCAGTGTCTGTGCCTCCTGCTGACCTTTTCCAATGCAGAACTCGAACCATGTGATGCATGCTTCTTGCCAAGTCACTT	-0.0284
AAATTGGTAATGACCATATTATCTGCTGGAAGCTTGGGAAGGAAAAGGGAAGTTGATTTGCTGATTTCTTACAATGAGTCAGTGATGTTATTATATTTACATATGACTAATTTAATTCTCAAAAATGCTGAGAAAATTAGACATTATCTTCATTTAACAGATGGGGAATATGATATGCAGTTACTAATGGCAG	0.342
ATCTTCCCCCTCTTCCTTGCCCCACCAGCTCACCTTCCCGGGTTATTTGCACAAAGGAAAATAAATAAAGCCGGCATTCGTTAACGCAGTTCTGGCGCAAACTGCTGTTTGCTCTGGATGAATCATGGTCCTTTGGCGACGCCAGGCTCCGGGAGAGCAAAGCACCGTGTCAGGGCCATGATCCGGGGTGGCC	0.369
CTTACCCAGATTCAGCTGTTTGTCTTGATTAGGCATTCTCCTGTGGCTGTAAACTTTTGATGACATTCAAGAGCTCCAATGAAGTTGATTCTGTGTTTGCCCATTTACATACTGTTTTTGTGAAGGGATGGAGTTGTGGAGTTCCCTACTCCACTACCTTCACTGACATTACTTCGTTTAAGTCCTTCATAAG	0.12
ATCTTCCCCCTCTTCCTTGCCCCACCAGCTCACCTTCCCGGGTTATTTGCAGATAGGAAAATAAATAAAGCCGGCATTCGTTAACCCTCTTCTGGCGCAAACTGCTGTTTGCTCTGGATGTGATCAGTCACTTTGGCGACGCCAGGCTCCGGGAGAGCAAAGCACCGTGTCAGGGCCATGATCCGGGGTGGCC	0.354
TTTTCATTTACTCTTGTTTTGTGTTTGAGTATAGACAGCTTTTCCCATCCTCCATCAGGGTCATTGTCCCACCTTCTCTGACTCACTTATTGTGTCATCTGAATTAAAAGAGCAGCCGGTGGACGTGTGTAGAGGCTGAAGGAGAGCTGTGTTGCTAGCTTTGTATTTGAACGGTTCGTACACAAACAGTTCT	0.101
ATCTTCCCCCTCTTCCTTGCCCCACCAGCTCACCTACGGGGGTTATTTGCAGATAGGAAAATAAATAAAGCCGGCATTCGTTAACGCAGTTCACGCGCATACTGCTGTTTGCTCTGCATCTAACATGGTCCTTACGCGACGCCAGGCTCCGGGAGAGCAAAGCACCGTGTCAGGCGCATGATCCGGGCTCGCC	0.359

Study 4
Target: Interferon regulatory factor 7, full length, phosphomimetic (IRF7, Homo sapiens, UniProt Q92985, residues 1-503, S101K/S471D/S472D/S475D/S476D/S477D/S483D/S484D/S487D)
Technique: protein-binding microarray
Form: double-stranded DNA, one strand shown
Medium: in vitro
Concentration: 250 nM
Setting: 60-bp whole probe
Together with: salmon DNA 0.4 mg/ml
Relative to: random background probes
Reading: higher = stronger binding
Shared flanks, not repeated: GCCTAGCAC … GTCTTGATTCGCTTGACGCTGCTG
Residues (chain): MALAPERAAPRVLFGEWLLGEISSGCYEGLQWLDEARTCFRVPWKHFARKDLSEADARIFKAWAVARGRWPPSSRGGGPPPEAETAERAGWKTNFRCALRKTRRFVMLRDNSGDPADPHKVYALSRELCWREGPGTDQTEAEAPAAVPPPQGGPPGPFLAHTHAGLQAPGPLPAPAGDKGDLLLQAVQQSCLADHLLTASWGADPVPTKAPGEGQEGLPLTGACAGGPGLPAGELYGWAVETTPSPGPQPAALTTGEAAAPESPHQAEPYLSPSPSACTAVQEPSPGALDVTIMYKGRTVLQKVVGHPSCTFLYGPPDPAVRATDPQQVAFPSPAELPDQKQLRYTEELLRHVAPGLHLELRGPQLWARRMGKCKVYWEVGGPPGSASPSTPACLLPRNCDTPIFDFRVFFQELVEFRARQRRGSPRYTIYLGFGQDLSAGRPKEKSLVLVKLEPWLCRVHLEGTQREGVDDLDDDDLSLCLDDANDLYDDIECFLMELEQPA
Oligonucleotide	log fluorescence [z-score]
TCATATTTACCTCTCACACTGTGCTAG	0.659
TTAGGTTTCGGCCTGGGTTAGTGCTAG	2.75
TCAGGACTGCTTCTCCTTTAGTGCTAG	0.255
TCAGCTTTCCTTTATGTACTGTGCTAG	0.737
GACGGTTTGGGTATCGGGACGTGCTAG	0.0588
GGCGGACTGCTTATCCTGACGTGCTAG	-0.989
GACGGAATGCTTTTCCTGACGTGCTAG	-0.105
TCATTTTTTTTCCTAATACTGTGCTAG	1.5
TGAGGACTGGGGTTTCGGTTAGTGCTA	5.02
TTAGGTATCGGGTTTCGGATAGTGCTA	4.68
TTAGGACTGCTTCTCCTTTGGTGCTAG	0.738
TTAGAACTGGCGTATCGATTAGTGCTA	-0.609
GACGATCTCGGTCTCGGGACGTGCTAG	0.111
TCTCCTCCCCCTCTGCCACCGTGCTAG	0.0822
GGTCTTCTGGGCTGTTTGGTCGTGCTA	-0.903
GACGGACTGCTACTGCCGACGTGCTAG	-0.945
TTAGTTATCGGGTATCGATTAGTGCTA	1.32
TTAGGTTTGGACTATCGGTTAGTGCTA	0.072
TGAGGTTTCGGGTATCGGTTAGTGCTA	7.03
TCATGTCTGTGTTTCCTACTGTGCTAG	0.912
GACGGTATCGACTATCGGGATGTGCTA	-0.355
GACGAACTGAGTCACGAGACGTGCTAG	0.119
CGCAGGGCAGGCTTCGGCCGGTGCTAG	-1.44
GACGGACTGGGTTTCGGGACGTGCTAG	1.66
GACGGTTTCGGACTGGGGACGTGCTAG	3.75

For quick reference, copied from above (study 4):
Oligonucleotide	log fluorescence [z-score]
TTAGGTATCGGGTTTCGGATAGTGCTA	4.68
GACGGTTTCGGACTGGGGACGTGCTAG	3.75
GGTCTTCTGGGCTGTTTGGTCGTGCTA	-0.903
GGCGGACTGCTTATCCTGACGTGCTAG	-0.989
TCATATTTACCTCTCACACTGTGCTAG	0.659
TCATGTCTGTGTTTCCTACTGTGCTAG	0.912
TCTCCTCCCCCTCTGCCACCGTGCTAG	0.0822
TCATTTTTTTTCCTAATACTGTGCTAG	1.5
